# Experimental data of several laboratories.
# Every numbered part comes from another study and shows a few of its results, in no order.

# Series 1
# Target: TAR DNA-binding protein 43, full length, His tag (TARDBP, Homo sapiens, UniProt Q13148, residues 1-414)
# Method: RNA Bind-n-Seq
# Form: RNA
# Medium: in vitro
# Tested at: 20 nM
# Setting: 6-mer, flanks averaged, single round
# With: 150 mM LiCl
# Relative to: input library
# Direction: higher = stronger binding
Oligonucleotide,6-mer enrichment (R)
AGGGAG,1.18
GCUAGU,0.971
UCAUCA,0.818
GUUAGU,1.16

# Series 2
# Target: RNA binding protein fox-1 homolog 2, RRM domain, GST-SBP tag (RBFOX2, Homo sapiens, UniProt O43251-10, residues 100-194)
# Method: RNA Bind-n-Seq
# Form: RNA
# Medium: in vitro
# Tested at: 365 nM
# Setting: natural RNA segment, single round, ends assumed
# Relative to: no-protein control
# Direction: higher = stronger binding
# Target sequence (chain): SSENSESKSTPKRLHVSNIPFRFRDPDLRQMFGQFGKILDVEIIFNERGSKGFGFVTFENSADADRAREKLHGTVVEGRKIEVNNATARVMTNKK
Oligonucleotide,RBNS enrichment (R)
GGGAGUUCUACAGUCCGACGAUCUUAGUAACCUCGCCUCUCUUCUUGAACCACACCGGUCUGCCGCUGCUCAGUGCCCCACCAGGCGUGGGCCUGGUCUCAGCGGCGGCUGCAGCCGUAGCAGCAUCCAUCUCUGGAAUUCUCGGGUGCCAA,0.233
GGGAGUUCUACAGUCCGACGAUCGGCUCUUGAGACCUGAUGCCCUCCUACCCACAUGGUUCUCCCACUGCCCUGUCUGCUCUGCUGCUACAGAGGGGCAGGGCCUCCCCCAGCCCACGCUUAGGAAUGCUUGGUGGAAUUCUCGGGUGCCAA,0.942
GGGAGUUCUACAGUCCGACGAUCUUGAAGAUUUCUGGCUUUUAGGCCUUUUCUAUUUUGUUCCAUUUAUUUUUGCAGGCAAUCUUUUCCAUGGAGGGCAGGGUAUCCAUUCUUUACCAUGGGUGUACCUGCUUUGGAAUUCUCGGGUGCCAA,0.991
GGGAGUUCUACAGUCCGACGAUCGGACAGUGAUAUUGAUCUUUUCACAAUGUACGUAGCCUCUAGAAUUUUGUACAUAUGUUUGCUCUUUUUUUGUACAGACUAGUUGUUGAGAAAACAGGGGCGUUUCCUAAUGGAAUUCUCGGGUGCCAA,1.8

# Series 3
# Target: Histone acetyltransferase KAT6A, both winged helices, GST fusion (KAT6A, Homo sapiens, UniProt Q92794, residues 1-181)
# Method: protein binding microarray
# Form: double-stranded DNA, one strand shown
# Medium: in vitro
# Tested at: not given
# Setting: 8-mer, flanks averaged, mean of 2 arrays, mostly near background
# Relative to: not given
# Direction: higher = stronger binding
# Construct (chain): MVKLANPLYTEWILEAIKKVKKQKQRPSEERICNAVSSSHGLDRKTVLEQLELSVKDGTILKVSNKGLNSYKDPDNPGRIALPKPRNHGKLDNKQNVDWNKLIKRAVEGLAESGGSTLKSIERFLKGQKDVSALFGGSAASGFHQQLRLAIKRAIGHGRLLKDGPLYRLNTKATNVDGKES
Oligonucleotide,E-score
ATCAGTAG,-0.136
TCTTATCA,0.00515
ACAACGAG,-0.159
ATATACTG,-0.0884

# Other studies, line by line
Substance,target,test,system,conditions,scale,endpoint,value
"PhoQ, residues 284 288 289 292 302 303 GASLAW","PhoP, residues 12 14 15 18 19 NIMAP (Escherichia coli, UniProt P23836)","Sort-seq, item: YFP reporter",E. coli,"PhoQ-PhoP variant library, with: 10 µM Mg2+","relative to: high Mg2+ state, higher = stronger signaling",fold induction,0.793

# Repeated from above (series 2):
Oligonucleotide,RBNS enrichment (R)
GGGAGUUCUACAGUCCGACGAUCUUGAAGAUUUCUGGCUUUUAGGCCUUUUCUAUUUUGUUCCAUUUAUUUUUGCAGGCAAUCUUUUCCAUGGAGGGCAGGGUAUCCAUUCUUUACCAUGGGUGUACCUGCUUUGGAAUUCUCGGGUGCCAA,0.991
GGGAGUUCUACAGUCCGACGAUCGGACAGUGAUAUUGAUCUUUUCACAAUGUACGUAGCCUCUAGAAUUUUGUACAUAUGUUUGCUCUUUUUUUGUACAGACUAGUUGUUGAGAAAACAGGGGCGUUUCCUAAUGGAAUUCUCGGGUGCCAA,1.8
